Measured values of several laboratories.
Parts stem from different laboratories: compare values within a part only. Substitutions count along the parent as printed.
Chain of UniProt P08172 (whole entry, looked up): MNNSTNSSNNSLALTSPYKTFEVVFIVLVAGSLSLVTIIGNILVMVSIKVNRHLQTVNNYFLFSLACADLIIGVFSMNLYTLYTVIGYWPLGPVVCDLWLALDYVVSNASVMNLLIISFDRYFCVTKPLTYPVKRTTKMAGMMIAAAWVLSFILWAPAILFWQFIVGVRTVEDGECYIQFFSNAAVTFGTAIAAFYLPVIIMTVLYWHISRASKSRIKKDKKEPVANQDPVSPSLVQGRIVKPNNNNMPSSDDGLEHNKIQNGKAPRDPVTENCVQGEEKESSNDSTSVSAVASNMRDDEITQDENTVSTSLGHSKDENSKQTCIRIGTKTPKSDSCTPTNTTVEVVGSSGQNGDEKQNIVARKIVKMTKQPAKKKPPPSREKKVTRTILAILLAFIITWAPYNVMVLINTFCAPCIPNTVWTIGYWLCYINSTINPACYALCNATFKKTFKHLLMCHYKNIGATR

Series 1 — target: CCND2, cyclin fold, Cln2 fusion (human); method: yeast growth competition, sequencing; matrix: yeast; setting: weak parent motif; baseline: not given; reading: higher = stronger binding
Starting sequence: viral docking peptide; TSVRRALFTGGSD; partner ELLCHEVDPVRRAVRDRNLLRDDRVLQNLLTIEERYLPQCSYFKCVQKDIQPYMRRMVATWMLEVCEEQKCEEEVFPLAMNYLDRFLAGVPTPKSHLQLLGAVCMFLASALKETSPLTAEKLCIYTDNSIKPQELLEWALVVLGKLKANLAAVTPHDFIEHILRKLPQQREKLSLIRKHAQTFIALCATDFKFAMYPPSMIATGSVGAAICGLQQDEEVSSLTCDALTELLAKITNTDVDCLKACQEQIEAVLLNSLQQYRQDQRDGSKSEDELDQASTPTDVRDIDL
Substitution | normalised enrichment score
TSCRRALFTGGSD [V3C] | 0.197
TSVRRALFTGGPD [S12P] | 0.106
TSVRRAYFTGGSD [L7Y] | 0.697
TSVRRANFTGGSD [L7N] | 0.326
TSVRRALFTGGGD [S12G] | -0.251
TSVLRALFTGGSD [R4L] | -0.0364
TSRRRALFTGGSD [V3R] | 0.558
TSVRRALFTVGSD [G10V] | -0.303

Series 2 — target: tungstate, free oxyanion; method: microfluidic competitive inhibition; matrix: in vitro, cell-free expressed; tested at: not given; reading: lower = stronger binding
Setting: derived from inhibition constants, unchanged parent 2230 nM
Starting sequence: PafA, mature enzyme, eGFP fusion (Elizabethkingia meningoseptica, UniProt Q9KJX5); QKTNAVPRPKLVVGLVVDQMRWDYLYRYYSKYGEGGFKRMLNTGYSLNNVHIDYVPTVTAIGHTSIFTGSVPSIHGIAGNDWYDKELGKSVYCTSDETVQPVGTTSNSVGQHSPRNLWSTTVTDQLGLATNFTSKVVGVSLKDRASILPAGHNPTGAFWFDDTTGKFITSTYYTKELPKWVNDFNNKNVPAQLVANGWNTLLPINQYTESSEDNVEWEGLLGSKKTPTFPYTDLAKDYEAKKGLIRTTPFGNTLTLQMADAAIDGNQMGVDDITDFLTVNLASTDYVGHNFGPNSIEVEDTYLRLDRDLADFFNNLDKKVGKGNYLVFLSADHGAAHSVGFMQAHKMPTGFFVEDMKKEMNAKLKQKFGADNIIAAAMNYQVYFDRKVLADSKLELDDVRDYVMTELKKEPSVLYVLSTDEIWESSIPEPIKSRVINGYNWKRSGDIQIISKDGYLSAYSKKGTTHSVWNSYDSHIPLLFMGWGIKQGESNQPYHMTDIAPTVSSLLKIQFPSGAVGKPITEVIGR
Substitution | oxyanion analog dissociation constant [µM]
E395V | 2.89
P230V | 2.22
S46G | 2.01
M347V | 2.27
F160G | 1.92
Q487G | 2.09
F328V | 2
L141G | 41.7

Series 3 — read-out: binding; method: phage display NGS; form: peptide; tested at: concentration not given; setting: panning round 2; baseline: input library
Target: UDP-N-acetylglucosamine--peptide N-acetylglucosaminyltransferase 110 kDa subunit (OGT, Homo sapiens, UniProt O15294)
Chain of UniProt O15294 (whole entry, looked up): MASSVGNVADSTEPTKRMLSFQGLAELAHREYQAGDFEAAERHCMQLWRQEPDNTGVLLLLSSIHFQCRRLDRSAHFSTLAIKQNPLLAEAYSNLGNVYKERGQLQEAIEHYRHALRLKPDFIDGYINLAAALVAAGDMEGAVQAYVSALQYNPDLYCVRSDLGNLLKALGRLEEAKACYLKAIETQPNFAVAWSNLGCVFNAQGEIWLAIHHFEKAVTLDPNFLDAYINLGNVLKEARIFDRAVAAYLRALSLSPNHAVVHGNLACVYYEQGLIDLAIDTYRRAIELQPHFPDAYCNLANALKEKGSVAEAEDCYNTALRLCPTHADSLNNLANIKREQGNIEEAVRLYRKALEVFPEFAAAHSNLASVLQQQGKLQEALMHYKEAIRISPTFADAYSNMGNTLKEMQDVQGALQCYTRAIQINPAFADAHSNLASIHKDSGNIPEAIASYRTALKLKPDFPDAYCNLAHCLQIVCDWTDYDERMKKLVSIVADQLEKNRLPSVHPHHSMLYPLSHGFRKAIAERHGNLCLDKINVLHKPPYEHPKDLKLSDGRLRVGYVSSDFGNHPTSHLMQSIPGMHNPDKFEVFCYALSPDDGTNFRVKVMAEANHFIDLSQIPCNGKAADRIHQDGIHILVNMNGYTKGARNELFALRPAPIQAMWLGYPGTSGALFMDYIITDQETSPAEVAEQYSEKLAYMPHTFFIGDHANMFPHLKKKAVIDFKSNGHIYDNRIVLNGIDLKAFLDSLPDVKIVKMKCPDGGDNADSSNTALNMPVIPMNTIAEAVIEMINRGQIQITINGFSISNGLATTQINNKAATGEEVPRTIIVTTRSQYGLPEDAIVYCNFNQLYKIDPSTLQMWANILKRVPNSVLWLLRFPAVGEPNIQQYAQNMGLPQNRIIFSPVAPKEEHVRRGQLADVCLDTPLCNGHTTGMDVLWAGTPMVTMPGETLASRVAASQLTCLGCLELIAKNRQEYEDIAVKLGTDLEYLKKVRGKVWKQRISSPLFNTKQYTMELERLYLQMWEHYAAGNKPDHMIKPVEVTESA
Sequence | enrichment fold change
ANTLDYTPFYTIEY | 4.39
GMSPWHFHSHQAIMV | 5.82
NQYHHGNTGNFHTHP | 7.62
HTSIAHHLHIGTIQT | 6.2
LTPFHTHHGHVTRG | 4.18
DFLYMPKYQMVFDFT | 94.9
RDIMPDYHPIYQIRI | 23.3
IYLPIYQIQAQWPFK | 14.2

Mixed results
Structure (SMILES) | target | read-out | quantity | value
COC(=O)c1cc(N(C)C(=O)c2ccn3ncc(-c4ccc(C(=O)O)cc4)c3c2)ccc1Cl | Muscarinic acetylcholine receptor M2 (CHRM2, Homo sapiens, UniProt P08172) | cell-free assay | IC50 | > 30 µM

Excerpt of the above (series 2):
Substitution | oxyanion analog dissociation constant [µM]
P230V | 2.22
Q487G | 2.09
M347V | 2.27
S46G | 2.01
